Measured values from different studies.
Protocols differ between the studies behind these lines. ± marks the error that the study gave.

Compound	cell line	test	conditions	scale	quantity	result
CC[C@H](C)[C@H](NC(=O)[C@@H](NC(=O)[C@@H](N)C(C)C)C(C)C)C(=O)N[C@@H](C)C(N)=O	PC-12	Aβ42-induced neurotoxicity, inhibitor, MTT	concentration not given, 6 h, 37 °C, peptide to Aβ42 1:2, added: Aβ42 2 µM	reference: untreated cells	viability	89.3%
C[C@@H]1O[C@@H](O[C@H]2[C@H](O[C@H]3CC[C@@]4(C)C(CC[C@]5(C)C4CC=C4C6CC(C)(C)CC[C@]6(C(=O)O[C@@H]6O[C@H](CO)[C@@H](O)[C@H](O)[C@H]6O)CC[C@]45C)[C@]3(C)CO)OC[C@H](O)[C@@H]2O)[C@H](O)[C@H](O[C@@H]2OC[C@@H](O)[C@H](O)[C@H]2O)[C@H]1O (some centres unmarked)	HepG2, palmitic acid-induced insulin resistance		2.5 µM, 24 h		glucose consumption	5.67 ± 0.76 mM
CC(=O)c1c(C)c2cnc(Nc3ccc(N4CCNCC4)cn3)nc2n(C2CCCC2)c1=O	recombinant CHO antibody-producing panel				maximum specific productivity	≤ 110 pg/cell/day
COc1cc(CNC(=O)C[C@H](C)CCC=C(C)C)ccc1OCc1cn(-c2ccccc2[N+](=O)[O-])nn1	OVCAR-4 ovarian cancer cells	SRB	10 µM, 48 h		growth percent	45.3%
CCC(=C(c1ccc(Cl)cc1)c1ccc(OCCN2CCCCC2)cc1)c1ccc(Cl)cc1	NCI-60 tumour cell lines		10 µM, mean over cell lines		growth inhibition	26.6%
COc1cc(CNC(=O)C[C@H](C)CCC=C(C)C)ccc1OCc1cn(-c2ccc(Br)cc2)nn1	OVCAR-8 ovarian cancer cells	SRB	10 µM, 48 h		growth percent	47.5%
COc1cc2c(C=C3C(=O)Nc4ccccc43)c[nH]c2cc1C	leukaemia subpanel of NCI-60		48 h		TGI	2.88 µM
CC(=O)Oc1ccccc1C(=O)[O][Pt]([NH2])([NH2])([Cl])([Cl])[O]C(=O)C(Cl)Cl	HEK293 and LoVo	cytotoxicity, MTT		reference: IC50 HEK293 over IC50 LoVo	selectivity index	0.1
CC(=O)OC[C@H]1O[C@@H](Sc2sc(C(=O)c3ccc(C)cc3)c(N)c2-c2nc3ccccc3s2)[C@H](OC(C)=O)[C@@H](OC(C)=O)[C@H]1OC(C)=O	HCC 2998	SRB	10 µM, 48 h	reference: untreated	growth	106%
CC(=O)O[C@H]1CC[C@]2(C)[C@H]3C(=O)C=C4[C@@H]5C[C@@](C)(C(=O)OCc6ccccc6)CC[C@]5(C)CC[C@@]4(C)[C@]3(C)CC[C@H]2C1(C)C	HepG2	autophagy, flow cytometry	8 µM, 24 h, unit not given	reference: untreated	MDC fluorescence intensity	1910
CC1=CC(C)=[N+]2C1=C(CCCCc1cn(C[C@@H]3[C@@H](O)[C@H](O)[C@@H](O)[C@@H]4O[C@H]34)nn1)c1c(C)cc(C)n1[B-]2(F)F	human monocyte-derived macrophages	activity-based probe, measured: recombinant GBA			labelled enzyme stability time	≥ 48 h
COc1cc(CNC(=O)C[C@H](C)CCC=C(C)C)ccc1OCc1cn(-c2ccc([N+](=O)[O-])cc2)nn1	SR leukaemia cells	SRB	10 µM, 48 h		growth percent	39.2%
Cc1cc(C)nc(SCC(=O)Nc2ncc(Cc3cccc(OCc4cn(Cc5ccc(C#N)cc5)nn4)c3)s2)n1	PC-3M-luc	immunofluorescence	20 µM, 5 h		α-tubulin acetylation	increased
COc1cc(CNC(=O)C[C@H](C)CCC=C(C)C)ccc1OCc1cn(-c2cccc([N+](=O)[O-])c2)nn1	SR leukaemia cells	SRB	10 µM, 48 h		growth percent	82%
COc1ccc(CC(C)=C(c2ccc(Cl)cc2)c2ccc(OCCN3CCOCC3)cc2)cc1	NCI-60 tumour cell lines		10 µM, mean over cell lines		growth inhibition	5.43%
CC(=NN=c1sc(C(=O)c2ccccc2)nn1-c1ccccc1)c1ccc(S(=O)(=O)N2CCC(C)CC2)cc1	HepG2	annexin V/PI staining	IC50, 72 h		apoptotic cells late	13.9%
COc1cc(CNC(=O)C[C@H](C)CCC=C(C)C)ccc1OCc1cn(-c2ccc(F)cc2)nn1	UACC-257 melanoma cells	SRB	10 µM, 48 h		growth percent	69.9%
Nc1ncnc2c1c(-c1cccc(F)c1)cn2[C@@H]1O[C@H](CO)[C@@H](O)[C@H]1O	HEK	cytotoxicity			EC50	> 200 µM
COc1cc(CNC(=O)C[C@H](C)CCC=C(C)C)ccc1OCc1cn(-c2ccccc2Cl)nn1	OVCAR-3 ovarian cancer cells	SRB	10 µM, 48 h		growth percent	83.6%
O=[N+]([O-])c1ccc(NC(=S)N/N=C/c2cccs2)cc1	HEL human lung fibroblasts	altered cell morphology, microscopy	confluent cultures		cytotoxic concentration	≥ 20 µM

Repeated from above:
Compound	cell line	test	conditions	scale	quantity	result
COc1cc(CNC(=O)C[C@H](C)CCC=C(C)C)ccc1OCc1cn(-c2ccc(F)cc2)nn1	UACC-257 melanoma cells	SRB	10 µM, 48 h		growth percent	69.9%
Nc1ncnc2c1c(-c1cccc(F)c1)cn2[C@@H]1O[C@H](CO)[C@@H](O)[C@H]1O	HEK	cytotoxicity			EC50	> 200 µM
COc1cc(CNC(=O)C[C@H](C)CCC=C(C)C)ccc1OCc1cn(-c2ccccc2Cl)nn1	OVCAR-3 ovarian cancer cells	SRB	10 µM, 48 h		growth percent	83.6%
